Assay results collected from several papers.
Lines come from different studies, so protocols differ. Several values in a cell are separate wells, animals, samples, runs or records. ± gives the spread as reported.
Cell line: HeLa

SMILES = C[C@@H](NC(=O)[C@@H](C)NC(=O)CNC(=O)CNC(=O)[C@H](CCCCN)NC(=O)OCC1c2ccccc2-c2ccccc21)C(=O)O; assay = MTT; conditions = concentration not given; measurement = cytotoxicity; result = not toxic
SMILES = CCCCCCCCCCCC1CC(=O)N[C@@H](CO)C(=O)N[C@H](CO)C(=O)N[C@H](C)C(=O)N(C)[C@@H](C(C)C)C(=O)N[C@H](CO)C(=O)N[C@H](CCCCN)C(=O)N[C@H](CO)C(=O)N[C@@H](CCCCN)C(=O)O1 (some centres unmarked); assay = MTT; conditions = 32 mg; measurement = survival; result = 66.2%
SMILES = O[Si](CCCN1CCCCC1)(c1ccc(F)cc1)C1CCCCC1 (centres unmarked); assay = cell growth or viability; conditions = 72 h; measurement = IC50; result = 60.1 µM
SMILES = CCCCCCCCCCCC1CC(=O)N[C@@H]([C@@H](C)O)C(=O)N[C@@H](Cc2ccccc2)C(=O)N[C@@H]([C@@H](C)O)C(=O)N[C@H]([C@H](C)O)C(=O)N[C@@H]([C@@H](C)O)C(=O)N[C@@H](Cc2ccccc2)C(=O)O1 (some centres unmarked); assay = MTT; conditions = 3.2 mg; measurement = survival; result = 17.9%
SMILES = CC[C@H](C)[C@H](NC(=O)[C@H](C)NC(=O)[C@H](CCCCN)NC(=O)[C@H](CC(C)C)NC(=O)[C@@H](N)Cc1ccccc1)C(=O)N[C@@H](CCCCN)C(=O)N[C@@H](CCCCN)C(=O)N[C@@H](Cc1ccccc1)C(=O)NCC(=O)N[C@@H](CCCCN)C(=O)N[C@@H](CCC(=O)O)C(=O)N[C@@H](Cc1ccccc1)C(=O)N[C@@H](CCCCN)C(=O)N[C@@H](CCCCN)C(=O)N[C@H](C(=O)NCC(=O)N[C@@H](C)C(=O)N[C@@H](CCCCN)C(=O)N[C@@H](CC(C)C)C(=O)N[C@@H](CCCCN)C(=O)O)[C@@H](C)CC; assay = MTT; conditions = 16 mg/L; how to read = relative to: untreated; measurement = cell growth; result = 90.9% and 93.9%
SMILES = S=c1n(-c2ccccc2)c2c3ccccc3nc3[n+]2[n]1[Ir-3]12([S]3)([c]3cccc4ccc5ccc[n+]1c5c34)[c]1cccc3ccc4ccc[n+]2c4c13; assay = ICP-MS; conditions = 10 µM, 24 h, 37 °C; measurement = cellular iridium uptake; result = 6.1 ± 0.01 fmol/cell
SMILES = CC[C@H](C)[C@H](NC(=O)[C@H](C)NC(=O)[C@H](CCCCN)NC(=O)[C@H](CCCCN)NC(=O)[C@@H](N)CCCNC(=N)N)C(=O)N[C@@H](CCCCN)C(=O)N[C@@H](CC(C)C)C(=O)N[C@H](C(=O)N[C@@H](CCCCN)C(=O)N[C@@H](CCCCN)C(=O)N[C@@H](CC(C)C)C(=O)N[C@H](C(=O)N[C@@H](CCCCN)C(=O)N[C@@H](CCCCN)C(=O)N[C@@H](CC(C)C)C(=O)N[C@@H](CCCCN)C(=O)N[C@@H](CCCCN)C(=O)N[C@@H](C)C(=O)N[C@@H](CC(C)C)C(=O)N[C@@H](CCCCN)C(=O)O)C(C)C)C(C)C; assay = MTT; conditions = 8 mg/L; how to read = relative to: untreated; measurement = cell growth; result = 95.4% and 90.9% and 92.5%
SMILES = CCCCCCc1cccc(C(O)CC(CO)NC(=O)CCCCCCCCCCNC(C)=O)c1 (centres unmarked); conditions = 1 µM, lipidomics treatment; measurement = living cells; result = 90% and 96% and 92%
